Published values gathered from unrelated publications.
Protocols differ between the studies behind these lines. ± marks the error that the study gave. In brackets after ≈: the same amount, converted by molar mass.
Organism: Staphylococcus aureus

C=C(C)C(=O)NCCCCCCCCCCOCc1cn(CCCCCCCCCCNC(=O)C(=C)C)nn1 — IC50 (growth, turbidity OD600; 24 h): > 100 µM
CC(C)C1=CC2=CCC3C(C)(C(=O)OCCC[N+](C)(C)C)CCCC3(C)C2CC1 (centres unmarked) — inhibition zone (microbial growth, disc diffusion; ATCC29213; 250 µg/disc, 24 h): 19 mm
C=C1CN(C(=N)N)CC2Nc3c(F)cc(Br)cc3C12CCNS(=O)(=O)c1ccc(Cl)cc1.O=C(O)C(F)(F)F (centres unmarked) — minimum resensitizing concentration (MRSA ATCC BAA-44; together with: amoxicillin/clavulanic acid): 2 µg/mL
COc1ccc2cc3[n+](cc2c1OC)CCc1cc2c(cc1-3)OCO2.[Cl][Fe-]([Cl])([Cl])[Cl] — MIC50 (24 h, 37 °C): 60.1 µM
N=C(N)NCCC[C@@H]1NC(=O)[C@H](CCCNC(=N)N)NC(=O)[C@@H](CCCNC(=N)N)NC(=O)[C@@H](CCCNC(=N)N)NC(=O)[C@@H](C(c2ccccc2)c2ccccc2)NC(=O)[C@H](Cc2c[nH]c3ccccc23)NC(=O)[C@@H](C(c2ccccc2)c2ccccc2)NC1=O — biofilm reduction (MRSA ATCC BAA-1556; 2 × MIC, 24 h, pre-formed biofilm): 63 to 69%
CCCCCCCCCC(=O)N[C@@H](Cc1c[nH]c2ccccc12)C(=O)N[C@H](CC(N)=O)C(=O)N[C@@H](CC(=O)O)C(=O)N[C@@H]1C(=O)NCC(=O)N[C@@H](CCCNC(=O)OC2/C=C/CCCCC2)C(=O)N[C@@H](CC(=O)O)C(=O)N[C@H](C)C(=O)N[C@@H](CC(=O)O)C(=O)NCC(=O)N[C@H](CO)C(=O)N[C@@H]([C@H](C)CC(=O)O)C(=O)N[C@@H](CC(=O)c2ccccc2N)C(=O)O[C@@H]1C (some centres unmarked) — peak heat flow time (planktonic bacterial growth, isothermal microcalorimetry; MSSA; 2.0 µg/mL, 24 h, 37 °C, together with: TAG hydrogel): 0 h
CC(C)[C@H](NC(=O)[C@H](CC1CCCCC1)NC(=O)[C@@H](Cc1c[nH]c2ccccc12)NC(=O)[C@@H](N)CCCN)C(=O)N[C@H](Cc1ccccc1)C(=O)N[C@@H](Cc1cn(Cc2ccccc2)cn1)C(N)=O — IC50 (ATCC 33591, methicillin-resistant): > 20 µg/mL
CC(=O)N[C@@H](CCCCN)C(=O)N1CCC[C@H]1C(=O)N[C@H](C(=O)N[C@@H](Cc1ccccc1)C(=O)N[C@@H](CCC(N)=O)C(=O)N[C@@H](Cc1ccccc1)C(=O)N[C@@H](CC(C)C)C(=O)N[C@@H](Cc1ccccc1)C(=O)N[C@@H](Cc1c[nH]cn1)C(=O)N[C@@H](CCC(=O)O)C(N)=O)C(C)C — unhealed wound area (USA300, BALB/c mice, skin wound infection; topical, 100 µL twice daily, day 7; baseline: initial): 69.9%
O=C(Oc1cccccc1=O)c1cccc(Cl)c1 — MIC80 (microbial growth, broth dilution; ATCC29213): 18.2 µM (≈ 4.74 µg/mL)
CC[C@H](C)[C@H](NC(=O)[C@H](CC1CCCCC1)NC(=O)[C@H]1CCCN1C(=O)[C@@H](N)CCCN)C(=O)N[C@H](Cc1ccccc1)C(=O)N[C@@H](Cc1cn(Cc2ccccc2)cn1)C(N)=O — IC50 (bacterial growth; ATCC 29213): > 20 µg/mL
CC(CCCOC(=O)CCC[N+](C)(C)C)C1CCC2C3C(OC(=O)CCC[N+](C)(C)C)CC4CC(OC(=O)CCC[N+](C)(C)C)CCC4(C)C3CC(OC(=O)CCC[N+](C)(C)C)C12C (centres unmarked) — inhibition zone (microbial growth, disc diffusion; ATCC29213; 62.5 µg/disc, 24 h): 11 mm
CCCC(=O)Oc1c(C)c(OC)c2c(c1C)OC(=O)[C@@H](CC)[C@]2(O)/C=C/c1ccccc1 (racemic) — MBC (microbial killing, broth dilution; ATCC25923): > 5000 µg/mL
CC1C=CC=CC(C)C2C=CC3CC(C)(O)C(Cl)C(C)C3C2C(=O)C(Cl)(Cl)C(=O)C(C)C(=O)O1 (centres unmarked) — MIC90 (MSSA and MRSA clinical isolates; 180 isolates): 0.1 µg/mL (≈ 0.000188 mM)
C[n+]1nn(CCCCCCCCCCN2C(=O)C=CC2=O)cc1COCCCCCCCCCCN1C(=O)C=CC1=O — IC50 (microbial growth, absorbance; 24 h): 36.1 µM
CC[C@H](C)[C@H](NC(=O)[C@H](CCCN)NC(=O)[C@H](CC(N)=O)NC(=O)[C@H](Cc1c[nH]c2ccccc12)NC(=O)[C@H](Cc1ccccc1)NC(=O)[C@H](CCCN)NC(=O)[C@H](CCCCNC(=N)N)NC(=O)[C@H](CC(C)C)NC(=O)[C@H](Cc1c[nH]c2ccccc12)NC(=O)[C@H](CCCN)NC(=O)[C@H](CCCCNC(=N)N)NC(=O)[C@H](CC(C)C)NC(=O)CNC(C)=O)C(=O)N[C@@H](CCCN)C(=O)N[C@@H](CCCCNC(=N)N)C(N)=O — MIC fold change (concentration not given, together with: FeCl3 4 µM; baseline: without salt): 2 fold
CC[C@H](C)[C@H](NC(=O)[C@H](CC1CCCCC1)NC(=O)[C@@H](Cc1c[nH]c2ccccc12)NC(=O)[C@@H](N)CCCN)C(=O)N[C@@H](Cc1csc2ccccc12)C(=O)N[C@@H](Cc1cn(Cc2ccccc2)cn1)C(N)=O — IC50 (ATCC 33591, methicillin-resistant): > 20 µg/mL
COc1c(C)c(OC(=O)c2ccc3ccccc3c2)c(C)c(O)c1C(=O)/C=C/c1ccccc1 — MBC (microbial killing, broth dilution; ATCC25923): > 5000 µg/mL
CC(CCCOC(=O)CCC[N+](C)(C)C)C1CCC2C3CCC4CC(OC(=O)CCC[N+](C)(C)C)CCC4(C)C3CCC12C (centres unmarked) — inhibition zone (microbial growth, disc diffusion; ATCC29213; 250 µg/disc, 24 h): 17 mm
C=C(NC(=O)c1csc(-c2nc3c(cc2O)-c2nc(cs2)C(=O)NC(C(C)O)C(=O)NC(=C(C)OC)c2nc(cs2)C(=O)NC2c4nc(cs4)C(=O)NC(COC(=O)c4c5c6c(cccc6n4O)COC(=O)C(OC4CC(C)(O)C(N(C)C)C(C)O4)C2OC5)c2nc-3cs2)n1)C(N)=O (centres unmarked) — post-antibiotic effect (ATCC 43300 MRSA; 1/2×MIC, 3 h exposure): 0.87 ± 0.16 h
CC(C)c1ccc2c(c1)CCC1C(C)(CN(CC(O)C[N+](C)(C)C)CC(O)C[N+](C)(C)C)CCCC21C (centres unmarked) — inhibition zone (microbial growth, disc diffusion; ATCC29213; 15.6 µg/disc, 24 h): 7 mm
CCCCCCCCCCCC(=O)Oc1c(C)c(OC)c2c(c1C)OC(=O)[C@@H](CCCCCCCCCC)[C@]2(O)/C=C/c1ccccc1 (relative stereo) — MBC (microbial killing, broth dilution; ATCC25923): > 5000 µg/mL
O=C1C=CC(=O)N1CCCCCCOCc1cn(CCCCCCN2C(=O)C=CC2=O)nn1 — IC50 (growth, turbidity OD600; 24 h): > 100 µM
CCCCCCCCCC(=O)Oc1c(C)c(OC)c2c(/C=C/c3ccccc3)c(CCCCCCCC)c(=O)oc2c1C — MBC (microbial killing, broth dilution; ATCC25923): > 5000 µg/mL
C=CS(=O)(=O)NCCCCCCCCOCc1cn(CCCCCCCCNS(=O)(=O)C=C)nn1 — IC50 (growth, turbidity OD600; 24 h): > 100 µM
CC[C@H](C)[C@H](NC(=O)[C@H](CC1CCCCC1)NC(=O)[C@H](CC(C)C)NC(=O)[C@@H](N)CCCN)C(=O)N[C@H](Cc1ccccc1)C(=O)N[C@@H](Cc1cn(Cc2ccccc2)cn1)C(N)=O — IC50 (bacterial growth; ATCC 29213): > 20 µg/mL
O=C1C=CC(=O)N1CCCCCCCCCCOCc1cn(CCCCCCCCCCN2C(=O)C=CC2=O)nn1 — IC50 (growth, turbidity OD600; 24 h): > 100 µM
CC(CCCOC(=O)CCC[N+](C)(C)C)C1CCC2C3CCC4CC(OC(=O)CCC[N+](C)(C)C)CCC4(C)C3CC(OC(=O)CCC[N+](C)(C)C)C12C (centres unmarked) — inhibition zone (microbial growth, disc diffusion; ATCC29213; 31.2 µg/disc, 24 h): 20 mm
C[n+]1nn(CCCCCCN2C(=O)C=CC2=O)cc1COCCCCCCN1C(=O)C=CC1=O — IC50 (growth, turbidity OD600; 24 h): > 100 µM
O=c1cccccc1O — MIC80 (microbial growth, broth dilution; ATCC29213): 11.7 µM (≈ 1.43 µg/mL)

Repeated from above:
CC[C@H](C)[C@H](NC(=O)[C@H](CC1CCCCC1)NC(=O)[C@H]1CCCN1C(=O)[C@@H](N)CCCN)C(=O)N[C@H](Cc1ccccc1)C(=O)N[C@@H](Cc1cn(Cc2ccccc2)cn1)C(N)=O — IC50 (bacterial growth; ATCC 29213): > 20 µg/mL
O=c1cccccc1O — MIC80 (microbial growth, broth dilution; ATCC29213): 11.7 µM (≈ 1.43 µg/mL)
CCCC(=O)Oc1c(C)c(OC)c2c(c1C)OC(=O)[C@@H](CC)[C@]2(O)/C=C/c1ccccc1 (racemic) — MBC (microbial killing, broth dilution; ATCC25923): > 5000 µg/mL
C=CS(=O)(=O)NCCCCCCCCOCc1cn(CCCCCCCCNS(=O)(=O)C=C)nn1 — IC50 (growth, turbidity OD600; 24 h): > 100 µM
